Measurements pooled from the literature.
Several values in a cell are separate wells, animals, samples, runs or records. ± marks the error that the study gave.

| Compound | target or system | test | system | setting | endpoint | result |
| --- | --- | --- | --- | --- | --- | --- |
| COc1ccc(/C=C/c2nc(N)[nH]c(=O)c2Br)cc1OC | HeLa | cell morphology alteration | – | – | minimum cytotoxic concentration | > 100 µM |
| CN1CCN(CCCN2c3ccccc3Sc3ccc(C(F)(F)F)cc32)CC1 | HeLa | cytotoxicity | – | 4.5 (unit not given) | IC50 | 30.6 µM |
| Nc1ncnc2c1ncn2C[C@H](O)CO | HeLa | cell morphology alteration | – | – | minimum cytotoxic concentration | > 250 µM |
| C[C@@H]1O[C@@H](O[C@H]2C[C@@H](O)[C@]3(CO)[C@H]4[C@H](O)C[C@]5(C)[C@@H](C6=CC(=O)OC6)CC[C@]5(O)[C@@H]4CC[C@]3(O)C2)[C@H](O)[C@H](O)[C@H]1O | HeLa | ATP content | – | 25 µM, 6 h | cytotoxicity | not toxic |
| Nc1nc(CCc2ccccc2)c(Br)c(=O)[nH]1 | HeLa | cell morphology alteration | – | – | minimum cytotoxic concentration | > 100 µM |
| C#CCCCOc1c2c(c(-c3ccc4c(c3)OCO4)c3cc(OC)c(OC)cc13)C(=O)OC2 | HeLa | – | – | 24 h | CC50 | 36.5 ± 7.13 µM |
| Nc1ncnc2c([C@@H]3N[C@H](CO)[C@@H](O)[C@H]3O)c[nH]c12 | HeLa | – | – | 25 µM | cell number | 5700 and 5930 |
| CC(C)(C)c1cc(C=C(C#N)C#N)cc(C(C)(C)C)c1O | Plasmodium falciparum | – | D10 | – | IC50 | 1.05 µM |
| O=C(NCCCNc1nc(Nc2cccc(NC(=O)N3CCCC3)c2)ncc1I)c1cccs1 | HeLa | MTT | – | 24 h | maximum tolerated concentration | ≤ 12.5 µM |
| CCOC(=O)CN1CCN(CCCOc2c3c(c(-c4ccc5c(c4)OCO5)c4cc(OC)c(OC)cc24)C(=O)OC3)CC1 | HeLa | – | – | 24 h | CC50 | 63 ± 11.2 µM |
| CC[C@]1(O)C[C@H]2CN(CCc3c([nH]c4ccccc34)[C@@](C(=O)OC)(c3cc4c(cc3OC)N(C=O)[C@H]3[C@@](O)(C(=O)OC)[C@H](OC(C)=O)[C@]5(CC)C=CCN6CC[C@]43[C@@H]65)C2)C1 | Plasmodium falciparum | – | 3D7 | – | IC50 | 0.1 µM |
| CCCCCCCCCCCCOS(=O)(=O)[O-].[Na+] | HeLa | – | – | 50 µM, 24 h | cytotoxicity | not toxic |

Some of these lines once more:
| Compound | target or system | test | system | setting | endpoint | result |
| --- | --- | --- | --- | --- | --- | --- |
| COc1ccc(/C=C/c2nc(N)[nH]c(=O)c2Br)cc1OC | HeLa | cell morphology alteration | – | – | minimum cytotoxic concentration | > 100 µM |
